# Assay results from different studies.
# Protocols differ between the studies behind these lines. Values joined by “and” are separate records of one study, mostly repeats; a detail may differ. Numbers after ± are the reported error.
# UniProt P10632, sequence (whole entry, looked up): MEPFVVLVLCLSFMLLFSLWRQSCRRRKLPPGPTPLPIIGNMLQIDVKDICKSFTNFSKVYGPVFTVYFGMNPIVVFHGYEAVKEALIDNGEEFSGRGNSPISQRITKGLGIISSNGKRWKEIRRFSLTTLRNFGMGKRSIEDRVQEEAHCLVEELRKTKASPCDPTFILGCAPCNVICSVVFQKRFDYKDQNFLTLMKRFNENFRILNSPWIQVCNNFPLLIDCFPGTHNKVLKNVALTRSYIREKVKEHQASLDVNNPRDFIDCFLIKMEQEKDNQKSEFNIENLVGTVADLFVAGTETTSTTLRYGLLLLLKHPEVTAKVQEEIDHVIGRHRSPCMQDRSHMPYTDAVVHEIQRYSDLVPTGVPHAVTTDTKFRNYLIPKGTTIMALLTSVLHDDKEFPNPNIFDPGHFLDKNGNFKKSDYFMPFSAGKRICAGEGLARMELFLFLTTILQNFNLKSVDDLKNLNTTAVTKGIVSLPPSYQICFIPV
SMILES,target or system,test,test system,setting,scale,endpoint,result
O=C(Nc1cnccc1-c1ccc([18F])nc1)c1ccnc(NC(=O)C2CC2)c1,,PET imaging,"FVB/NJ mice, both sexes, brain","intravenous, 10 min post-injection",,median SUV,0.092
CNC(=O)C1CCCN(C(=O)C2CC3CCC2N3C(=O)[C@@H]2C[C@@H](O)CN2C(=O)NCc2cccc(Cl)c2F)C1 (mixture of isomers),"Cytochrome P450 2C8 (CYP2C8, Homo sapiens, UniProt P10632)",preincubation without NADPH,human,5.56 µM,reference: negative control,remaining activity,69.6% and 85% and 86.3%
O=C1C2CC3CC1CC(C(=O)N1CCN(c4ccc([N+](=O)[O-])c5ncccc45)CC1)(C3)C2,Salmonella typhimurium,Ames test,TA1535,"0.02 µg/well, with S9",reference: vehicle,revertant fold increase,0.8
CC(C)OCCOCc1ccc(OCC(O)CN(N=O)C(C)C)cc1 (stereo not drawn),Escherichia coli,Ames test,WP2 uvrA,"5 µg/plate, 30 % hamster S9",reference: solvent control,revertant fold increase,1.1 fold
CCN(CC)CC#CCNc1ccnc2cc(Cl)ccc12,Salmonella typhimurium,mini-Ames test,TA98,"500.0 µg/well, with rat liver S9",,mean revertants,17 revertants/well
CN1CCCNC(=O)c2cccc(c2)C(=O)NCCCN(C)CCCNc2cccc3c2C(=O)c2cccc(c2C3=O)NCCC1,HSC-2,"cell growth or viability, CCK-8",,"0.15 µM, 48 h",,viability,82.2%
N#C[C@@H]1CC(F)(F)CN1C(=O)CNC(=O)c1ccnc2c(NC(=O)[C@H](CCCCNC(=O)CCOCCOCCOCCOCCOCCOCCNC(=O)CN3CCN(CC(=O)[O-])CCN(CC(=O)[O-])CCN(CC(=O)[O-])CC3)NC(=O)CCCc3ccc(I)cc3)cccc12.[177Lu+3],U-87 MG tumour model,,"host not given, heart","48 h, tumour-bearing",,tracer uptake,0.24 %ID/g
C=C(NC(=O)c1csc(-c2nc3c(cc2O)-c2nc(cs2)C(=O)NC(C(C)O)C(=O)NC(=C(C)OC)c2nc(cs2)C(=O)NC2c4nc(cs4)C(=O)NC(COC(=O)c4c5c6c(cccc6n4O)COC(=O)C(OC4CC(C)(O)C(N(C)C)C(C)O4)C2OC5)c2nc-3cs2)n1)C(N)=O (stereo not drawn),,,"cynomolgus monkey, both sexes, plasma","intravenous infusion, 9 mg/kg single dose",,MRT(0-last),1.78 h
O=C1NC2(CC2)COc2ncc(F)cc2[C@H]2COCCN2c2ccn3ncc1c3n2,Salmonella typhimurium,Ames test,TA97a,"150 µg/plate, 48 h, added: without S9",,revertant colonies,89 ± 16 revertants/plate

# A few entries again:
SMILES,target or system,test,test system,setting,scale,endpoint,result
O=C1NC2(CC2)COc2ncc(F)cc2[C@H]2COCCN2c2ccn3ncc1c3n2,Salmonella typhimurium,Ames test,TA97a,"150 µg/plate, 48 h, added: without S9",,revertant colonies,89 ± 16 revertants/plate
